# Assay results from different studies.
# Compare with care: the assays were run in different laboratories.
assay,test system,setting,endpoint,result,Structure (SMILES)
light scattering,DNase I buffer,5% DMSO,critical aggregation concentration,177 µM,CCC(c1nnnn1Cc1cccs1)N1CCC(c2nc3cc(N)ccc3s2)CC1 (stereo not shown)
oscillatory rheology,hydrogel in water,"2.0 wt%, pH 5.0 or 7.4, together with: alkaline phosphatase at pH 7.4",critical strain,1.2%,Cc1cn(CC(=O)N[C@@H](Cc2ccccc2)C(=O)N[C@@H](Cc2ccccc2)C(=O)O)c(=O)[nH]c1=O
light transmittance,PBS,pH 7.4,critical micelle concentration,976 µM,CC[C@H](C)[C@H](NC(=O)[C@H](CCN)NC(=O)CCCCCCCCCCCNC(=O)CCCCCO)C(=O)N[C@@H](CCN)C(=O)N[C@H](Cc1ccccc1)C(=O)N[C@@H](CC(C)C)C(=O)N[C@@H](CCN)C(=O)N[C@@H](C(=O)N[C@@H](CC(C)C)C(=O)N[C@@H](CO)C(N)=O)C(C)C
Nile red fluorescence blue shift,PBS,"total PA concentration, together with: Nile red 100 nM",critical aggregation concentration,~10 µM,CCCCCCCCCCCC(=O)NCCCC[C@H](NC(=O)[C@H](C)NC(=O)[C@H](C)NC(=O)[C@H](C)NC(=O)[C@H](C)NC(=O)[C@H](C)NC(=O)[C@H](C)NC(=O)[C@H](CCCCN)NC(=O)[C@H](CCCCN)NC(=O)[C@H](CCCCNC(=O)CC[C@H](NC(=O)[C@@H](NC(=O)[C@@H]1CSSC[C@H](NC(=O)[C@H](CC(=O)O)NC(=O)[C@@H](N)Cc2c[nH]c3ccccc23)C(=O)N[C@@H](CC(C)C)C(=O)N[C@@H](CC(=O)O)C(=O)N[C@@H](CC(N)=O)C(=O)N[C@@H](CCCNC(=N)N)C(=O)N[C@@H]([C@@H](C)CC)C(=O)NCC(=O)N[C@@H](CCCNC(=N)N)C(=O)N[C@@H](CCCNC(=N)N)C(=O)N[C@@H](CCC(N)=O)C(=O)N1)C(C)C)C(=O)N[C@@H](CC(C)C)C(N)=O)NC(=O)CC[C@H](NC(=O)[C@@H](NC(=O)[C@@H]1CSSC[C@H](NC(=O)[C@H](CC(=O)O)NC(=O)[C@@H](N)Cc2c[nH]c3ccccc23)C(=O)N[C@@H](CC(C)C)C(=O)N[C@@H](CC(=O)O)C(=O)N[C@@H](CC(N)=O)C(=O)N[C@@H](CCCNC(=N)N)C(=O)N[C@@H]([C@@H](C)CC)C(=O)NCC(=O)N[C@@H](CCCNC(=N)N)C(=O)N[C@@H](CCCNC(=N)N)C(=O)N[C@@H](CCC(N)=O)C(=O)N1)C(C)C)C(=O)N[C@@H](CC(C)C)C(N)=O)C(N)=O
light scattering,DNase I buffer,5% DMSO,critical aggregation concentration,19.6 µM,CCC(c1nnnn1Cc1cccs1)N1CCC(c2nc3cccc(F)c3s2)CC1 (stereo not shown)
surface tension tensiometry,,,critical aggregation concentration,1.2 mg/mL,COC(=O)[C@H](Cc1ccccc1)NC(=O)[C@H](Cc1ccccc1)NC(=O)CCC(=O)N[C@@H](Cc1ccccc1)C(=O)N[C@@H](Cc1ccccc1)C(=O)OC
light scattering,DNase I reaction buffer,,critical aggregation concentration,> 23 µM,CCC(c1nnnn1Cc1cccs1)N1CCN(c2nc3cc(N)cc(F)c3s2)CC1 (stereo not shown)
,deionized water,,critical aggregation concentration,0.14 mg/mL,COCCOCCOCCOCCOCCOCCOCCOCCOCCOCCOCCOCCOCCOCCOCCOCCOCCOCCOCCOCCOCCOCCNC(=O)CCC1(Cc2ccccc2)c2ccccc2-c2ccc(-c3sc(-c4c5c(c(-c6sc(-c7ccc8c(c7)C(CCC(=O)NCCOCCOCCOCCOCCOCCOCCOCCOCCOCCOCCOCCOCCOCCOCCOCCOCCOCCOCCOCCOCCOCCOC)(Cc7ccccc7)c7ccccc7-8)c7c6OCCO7)c6nsnc46)N=S=N5)c4c3OCCO4)cc21 (stereo not shown)
light scattering,DNase I buffer,5% DMSO,critical aggregation concentration,90.7 µM,CCC(c1nnnn1Cc1cccs1)N1CCN(c2nc3cc(OC)cc(F)c3s2)CC1 (stereo not shown)
pyrene fluorescence,water,,critical micelle concentration,~63.1 µg/mL,C[N+](C)(C)CCOP(=O)([O-])OCC(COC(=O)CCCCCOC(=O)CCCCC1CCSS1)OC(=O)CCCCCOC(=O)CCCCC1CCSS1 (stereo not shown)
oscillatory rheology,hydrogel in water,"2.0 wt%, pH 5.0 or 7.4, together with: alkaline phosphatase at pH 7.4",critical strain,2%,Nc1nc2c(ncn2CC(=O)N[C@@H](Cc2ccccc2)C(=O)N[C@@H](Cc2ccccc2)C(=O)N[C@@H](Cc2ccc(O)cc2)C(=O)O)c(=O)[nH]1
Nile Red fluorescence,150 mM NaCl,"pH 4.0, room temperature",critical aggregation concentration,467 µM,NCCNC(=O)[C@H](Cc1ccccc1)NC(=O)[C@H](Cc1ccccc1)NC(=O)CNC(=O)c1cc(C(=O)NCC(=O)N[C@@H](Cc2ccccc2)C(=O)N[C@@H](Cc2ccccc2)C(=O)NCCN)cc(C(=O)NCC(=O)N[C@@H](Cc2ccccc2)C(=O)N[C@@H](Cc2ccccc2)C(=O)NCCN)c1
"substrate, rheology",hydrogel,"0.5 wt%, together with: alkaline phosphatase 1 U/mL",critical strain,1.8%,O=C(Cc1ccc2ccccc2c1)N[C@H](Cc1ccccc1)C(=O)N[C@H](Cc1ccc(OP(=O)(O)O)cc1)C(=O)N[C@H](Cc1ccccc1)C(=O)N[C@H](Cc1ccc(OP(=O)(O)O)cc1)C(=O)O
RWG biosensor,HBSS HEPES buffer,pH 7.2,critical aggregation concentration,1 µM,O=C(/C=C/c1ccc(O)c2oc(-c3ccc(O)c(O)c3)cc12)O[C@H](Cc1ccc(O)c(O)c1)C(=O)O
"substrate, rheology",hydrogel,"0.5 wt%, together with: alkaline phosphatase 1 U/mL",critical strain,1.5%,O=C(Cc1ccc2ccccc2c1)N[C@H](Cc1ccccc1)C(=O)N[C@H](Cc1ccccc1)C(=O)N[C@H](Cc1ccc(O)cc1)C(=O)N[C@H](Cc1ccc(OP(=O)(O)O)cc1)C(=O)O
,PBS,after atomizer spraying,critical gelation concentration,1 mM,CCCCCCCCCCCC(=O)N[C@@H](CC(C)C)C(=O)N[C@@H](CCCNC(=N)N)C(=O)N[C@@H](CCC(=O)O)C(=O)N[C@@H](CC(C)C)C(=O)N[C@@H](Cc1c[nH]cn1)C(=O)N[C@@H](CC(C)C)C(=O)N[C@@H](CC(N)=O)C(=O)N[C@@H](CC(N)=O)C(=O)N[C@@H](CC(N)=O)C(N)=O

# Repeated from above:
assay,test system,setting,endpoint,result,Structure (SMILES)
RWG biosensor,HBSS HEPES buffer,pH 7.2,critical aggregation concentration,1 µM,O=C(/C=C/c1ccc(O)c2oc(-c3ccc(O)c(O)c3)cc12)O[C@H](Cc1ccc(O)c(O)c1)C(=O)O
"substrate, rheology",hydrogel,"0.5 wt%, together with: alkaline phosphatase 1 U/mL",critical strain,1.5%,O=C(Cc1ccc2ccccc2c1)N[C@H](Cc1ccccc1)C(=O)N[C@H](Cc1ccccc1)C(=O)N[C@H](Cc1ccc(O)cc1)C(=O)N[C@H](Cc1ccc(OP(=O)(O)O)cc1)C(=O)O
